Results of several laboratories.
Every numbered part comes from another study and shows a few of its results, in no order. Changes are numbered by the printed parent chain.

Study 1
Target: TAR DNA-binding protein 43, full length, His tag (TARDBP, Homo sapiens, UniProt Q13148, residues 1-414)
Technique: RNA Bind-n-Seq
Form: RNA
Medium: in vitro
Concentration: 20 nM
Notes: 6-mer, flanks averaged, single round
Together with: 150 mM KCl
Baseline: input library
Direction: higher = stronger binding
Endpoint: 6-mer enrichment (R)
Oligonucleotide = UUAAGU; value = 0.638
Oligonucleotide = UGAACG; value = 0.952
Oligonucleotide = CCAAGA; value = 0.708
Oligonucleotide = ACGACC; value = 0.643

Study 2
Target: Sal-like protein 4, full length isoform B (SALL4, Homo sapiens, UniProt Q9UJQ4-2, residues 1-616)
Technique: universal PBM
Form: double-stranded DNA, one strand shown
Medium: in vitro
Concentration: not given
Notes: 8-mer, flanks averaged, mean of replicates
Direction: higher = stronger binding
Endpoint: E-score
Oligonucleotide = CAACCAAA; value = -0.0186
Oligonucleotide = GATTTAGC; value = -0.101
Oligonucleotide = AGTGTGAG; value = -0.0179
Oligonucleotide = GGTTGATA; value = 0.0444
Oligonucleotide = AGACTTGG; value = -0.121
Oligonucleotide = GCGATGAA; value = 0.00468

Study 3
Target: ABI1, truncated, D143A, DHFR fusion (Arabidopsis thaliana)
Technique: DHFR PCA, deep sequencing
Medium: yeast
Notes: methotrexate growth selection, single substitutions
Together with: (+)-ABA 0 µM
Baseline: wild-type fitted maximum
Direction: higher = stronger binding
Endpoint: relative binding score
Parent: PYL1, truncated, DHFR fusion (Arabidopsis thaliana); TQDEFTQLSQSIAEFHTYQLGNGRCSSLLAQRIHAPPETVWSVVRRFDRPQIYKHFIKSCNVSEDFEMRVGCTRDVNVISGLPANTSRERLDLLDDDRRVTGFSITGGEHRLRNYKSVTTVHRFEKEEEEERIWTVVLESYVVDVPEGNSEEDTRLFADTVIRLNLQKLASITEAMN
Substitution = F124P; value = 2.61%
Substitution = T119F; value = -12.8%
Substitution = D96W; value = -9.67%
Substitution = K58H; value = 1.72%

Mixed results
Substance = PhoQ, residues 284 288 289 292 302 303 SLKLQV; target = PhoP, residues 12 14 15 18 19 VQGLL (Escherichia coli, UniProt P23836); test = Sort-seq, measured: YFP reporter; test system = E. coli; setting = PhoQ-PhoP variant library, together with: 10 µM Mg2+; scale = baseline: high Mg2+ state, higher = stronger signaling; endpoint = fold induction; value = 10.2

A few entries again (study 3):
Substitution = D96W; value = -9.67%
Substitution = K58H; value = 1.72%
